# Experimental data of several laboratories.
# Compare with care: the assays were run in different laboratories. ± gives the spread as reported.
# FAAH: Fatty-acid amide hydrolase 1 (FAAH, Homo sapiens, UniProt O00519)
# SNCA: Alpha-synuclein (SNCA, Homo sapiens, UniProt P37840)
# EPHX2: Bifunctional epoxide hydrolase 2 (EPHX2, Homo sapiens, UniProt P34913)
SMILES,target,test,system,setting,scale,endpoint,value
Cn1c(=S)c2[nH]c(SCCCc3ccccc3)nc2n(C)c1=O,"Glucocorticoid receptor (Nr3c1, Rattus norvegicus, UniProt P06536)","reporter gene, antagonist, MMTV-luciferase",T47D/A1-2,"10 µM, 24 h, together with: 5 nM dexamethasone",reference: maximal activity,remaining activity,45%
CCCCCCCC(=O)Nc1ccc(C)nc1OC,FAAH,"enzyme activity, substrate",,"50 µM, pH 8, 37 °C",,specific activity,130 pmol/min/µg
CC(C)CC(NC(=O)C(NC(=O)NC(C(=O)O)C(C)C)C1CCNC(=N)N1)C(=O)NCCCNC(C(=O)O)C(OC1OC(CN)C(O)C1O)C1OC(n2ccc(=O)[nH]c2=O)C(O)C1O (stereo not shown),"Phospho-N-acetylmuramoyl-pentapeptide-transferase (mraY, Aquifex aeolicus, UniProt O66465, F262A)",ITC,,F262A mutant,,ΔH,-4.9 ± 0.8 kcal/mol
COCCN1CCN(C(=S)c2ccc(-c3cc(Cl)ccc3Cl)o2)CC1,"Atrial natriuretic peptide receptor 2 (NPR2, Homo sapiens, UniProt P20594)","positive allosteric modulator, cGMP HTRF",HEK293 expressing GC-B,"concentration not given, together with: CNP",,activity,inactive
Cn1sc(=O)n(Cc2ccccc2)c1=O,Bacteroides Pif1 helicase,"ssDNA binding, fluorescence EMSA",,together with: dT12,,inhibitory concentration,7.8 µM
O=c1cc(-c2ccc(O)cc2)oc2c([C@@H]3OC[C@@H](O)[C@H](O)[C@H]3O)c(O)c([C@@H]3O[C@H](CO)[C@@H](O)[C@H](O)[C@H]3O)c(O)c12,"Sodium/glucose cotransporter 2 (SLC5A2, Homo sapiens, UniProt P31639)",inhibitor,COS-7 expressing SLC5A2,50 µM,reference: control,1-NBDG uptake,35.9 ± 1.81%
CC1=CC(C)=[N+]2C1=C(CCCCc1cn(C[C@@H]3[C@@H](O)[C@H](O)[C@@H](O)[C@@H]4O[C@H]34)nn1)c1c(C)cc(C)n1[B-]2(F)F,"Lysosomal acid glucosylceramidase (GBA1, Homo sapiens, UniProt P04062, R534H)",tryptophan fluorescence,,"pH 7.4, complex with inhibitor",,emission maximum,333 nm
O=C(NO)c1ccc(Cn2sc3ccccc3c2=O)cc1,"Protein deacetylase HDAC6 (HDAC6, Homo sapiens, UniProt Q9UBN7)",enzyme activity,,10 nM,,Vmax,6.8 nM/min/mg
CNc1ccccc1C(=O)O[C@H]1C[C@H](n2cnc3c(N)ncnc32)O[C@@H]1COP(=O)(O)OP(=O)(O)O,"Unconventional myosin-Va (Gallus gallus, UniProt Q02440, D297C/G292C/I296C/S293C/V295G)","stopped-flow FRET, linear fit intercept",,"25 °C, together with: EDTA 4 mM",,dissociation rate constant,82.3 ± 4.52 s⁻¹
O=C(O)c1ccc(/C=C2\SC(=S)N(Cc3cccc(C(F)(F)F)c3)C2=O)cc1,"NACHT, LRR and PYD domains-containing protein 1 (NLRP1, Homo sapiens, UniProt Q9C000)",inhibitor,,1 µM,,ATPase activity,no effect
CC(C)C[C@@H]1NC(=O)[C@H](CCCCN)NC(=O)[C@H](Cc2c[nH]cn2)NC(=O)[C@H](Cc2c[nH]c3ccccc23)NC(=O)CNC(=O)[C@H](CC(C)C)NC(=O)[C@@H](Cc2ccc(O)cc2)NC(=O)CSC[C@@H](C(=O)NCC(=O)N[C@@H](CCCCN)C(=O)N[C@@H](CCCCN)C(=O)N[C@@H](CCCCN)C(N)=O)NC(=O)[C@H](CO)NC(=O)[C@H](CCCNC(=N)N)NC(=O)CNC(=O)[C@H](Cc2ccc(O)cc2)NC(=O)[C@@H]2CCCN2C(=O)[C@H](CCC(N)=O)NC(=O)[C@H](Cc2ccccc2)NC(=O)[C@H](Cc2c[nH]c3ccccc23)NC1=O,SNCA,FRAP,,"200 µM, 1 h, room temperature, droplets",,fluorescence recovery,~8%
CCCC[C@H](C)/C=C(C)/C=C/C(=O)O,"Transient receptor potential cation channel subfamily A member 1 (TRPA1, Homo sapiens, UniProt O75762, K868A)","calcium influx, fluorescence calcium",,K868A mutant,reference: wild type,potency shift,29 fold
COc1cc(C(=O)NC2CCC(N3CCN(CC4CCC5(CCCC5)C4)CC3)CC2)c(F)cc1Nc1ncc2c(n1)N(C1CCCC1(F)F)CC(F)(F)C(=O)N2C (stereo not shown),"Ephrin type-B receptor 4 (EPHB4, Homo sapiens, UniProt P54760)","cell-free assay, TR-FRET",,10 µM,,inhibition,2.77%
[3H]CC([3H])C(=O)NCc1cc(C(=O)NCCN2CCC(N3CCC(n4c(=O)[nH]c5ccccc54)CC3)CC2)cc(C(=O)NCCN2CCN(CCCCC3CCN(CC(=O)N4c5ccccc5NC(=O)c5ccccc54)CC3)CC2)c1 (stereo not shown),"Muscarinic acetylcholine receptor M2 (CHRM2, Homo sapiens, UniProt P08172)",dissociation kinetics,CHO cell homogenates,"23 °C, together with: 6 at 1000-fold excess",,koff,0.000367 ± 3.33e-05 s⁻¹
CCCCOP(=O)(Cc1ccccc1)O[C@@H]1O[C@H](CO)[C@@H](O)[C@H](O)[C@H]1F (mixture of isomers),"Lysosomal acid glucosylceramidase (GBA1, Homo sapiens, UniProt P04062)","enzyme activity, irreversible inhibitor",,"pH 5.5, 37 °C, together with: 2,4-dinitrophenyl beta-D-glucopyranoside",,kinact/Ki,122 M⁻¹ s⁻¹
Cc1cc(C(=O)CN2CCCC2=O)c(C)n1Cc1ccccc1,"Sphingosine 1-phosphate receptor 2 (S1PR2, Homo sapiens, UniProt O95136)","reporter gene, agonist",,,,Emax,35%
C=C1CN(S(=O)(=O)c2ccc(C)cc2)CCCN(Cc2ccccc2)CCCN(S(=O)(=O)c2ccc(C)cc2)C1,"DnaJ homolog subfamily C member 3 (DNAJC3, Homo sapiens, UniProt Q13217)",SILAC mass spectrometry,"SUP-T1, crude membrane fraction","10 µM, 17 h, reverse labelling",reference: DMSO over compound,protein level ratio,2.93
CCCCCCCCCCCSc1nc2c([nH]1)c(=O)n(C)c(=S)n2C,"Progesterone receptor (PGR, Homo sapiens, UniProt P06401)","reporter gene, antagonist, MMTV-luciferase",T47D/A1-2,"10 µM, 24 h, together with: 5 nM progesterone",reference: maximal activity,remaining activity,73%
CC12CC3CC(C)(C1)CC(NC(=O)Nc1ccc(C(=O)N4CCCC(C(=O)NO)C4)cc1)(C3)C2 (stereo not shown),EPHX2,,,,,lipophilic ligand efficiency,6.87
CC(C)(C)CCN1C[C@@H]2[C@@H](CNC(=O)c3cc(Cl)cc(Cl)c3)[C@@H]2C1.Cl,"Voltage-dependent L-type calcium channel subunit alpha-1C (CACNA1C, Oryctolagus cuniculus, UniProt P15381)","calcium current, whole-cell patch clamp",HEK-293T cells transfected,"5 µM, median",,activation slope factor k,8.77 mV
CC(C)[C@H](NC(=O)[C@H](CCCCN)NC(=O)[C@H](C)NC(=O)[C@H](CCCCN)NC(=O)CNC(=O)[C@H](CS)NC(=O)[C@@H](NC(=O)[C@H](CCCCN)NC(=O)[C@@H](N)CO)[C@@H](C)O)C(=O)N[C@H](C(=O)NCC(=O)N[C@@H](CCCNC(=N)N)C(=O)N[C@@H](Cc1c[nH]c2ccccc12)C(=O)N[C@@H](CCCCN)C(=O)O)[C@@H](C)O,"TPM1/ACTA1, with F-actin (Oryctolagus cuniculus, UniProt P58772+P68135)","binding, LSPR",,"pH 7.0, together with: F-actin-tropomyosin filaments",,kon,3930 ± 249 M⁻¹ s⁻¹
O=C(Nc1ccc(C(=O)Nc2ccc(C(=O)Nc3ccc(S(=O)(=O)O)c4cc(S(=O)(=O)O)cc(S(=O)(=O)O)c34)cc2)cc1)Nc1ccc(C(=O)Nc2ccc(C(=O)Nc3ccc(S(=O)(=O)O)c4cc(S(=O)(=O)O)cc(S(=O)(=O)O)c34)cc2)cc1,"Neutrophil elastase (ELANE, Homo sapiens, UniProt P08246)","enzyme activity, inhibitor, chromogenic substrate hydrolysis",,"pH 7.4, 37 °C, 100 mM NaCl, together with: substrate S-1384",,Hill slope,2.6 ± 0.1
C=CC(=O)N1CCN(c2nc(OCC34CCCN3CCC4)nc3c(F)c(-c4ccc(F)c5sc(N)nc45)c(C(F)(F)F)cc23)CC1,"GTPase KRas, GppNHp-bound (KRAS, Homo sapiens, UniProt P01116, C118S/G12C)",MALDI-TOF MS,,"15 min, GppNHp-loaded",,covalent modification,50%
CCCCCCCC(=O)Nc1ccc(OC)nc1,FAAH,"enzyme activity, substrate",,"50 µM, pH 8, 37 °C",,specific activity,480 pmol/min/µg
CC(=O)NC1CCN(C(=O)c2ccc(NC(=O)NC34CC5CC(C)(CC(C)(C5)C3)C4)cc2)CC1,EPHX2,,,,,lipophilic ligand efficiency,6.73
O=C(Nc1ccc(Cl)cc1)Nc1cccc2[nH]ccc12,SNCA,"fibril formation, ThT fluorescence kinetics",,"100 µM, α-syn 2 µM, plateau phase",reference: DMSO vehicle,maximum ThT fluorescence,15 ± 3%
CC[C@H](C)[C@H](NC(=O)[C@H](CC(C)C)NC(=O)[C@H](C)NC(=O)CNC(=O)CNC(=O)[C@H](CS)NC(=O)[C@H](Cc1ccccc1)NC(=O)[C@H](Cc1c[nH]cn1)NC(=O)[C@H](CCCNC(=N)N)NC(=O)CNC(=O)[C@H](CCC(N)=O)NC(=O)[C@@H](N)CC(N)=O)C(=O)N[C@@H](Cc1c[nH]cn1)C(=O)N[C@@H](C)C(=O)N[C@@H](CCCNC(=N)N)C(=O)N[C@@H](Cc1ccccc1)C(=O)N[C@H](C(=O)N[C@@H](CCSC)C(=O)N[C@H](C(=O)N[C@@H](C)C(=O)N[C@@H](C)C(=O)N[C@@H](CO)C(=O)N[C@@H](CS)C(=O)N[C@@H](Cc1ccccc1)C(=O)N[C@@H](CCC(N)=O)C(=O)O)[C@@H](C)O)C(C)C,"Toll-like receptor 4 (TLR4, Homo sapiens, UniProt O00206)","SEAP reporter, agonist",HEK-Blue hTLR4 cells,concentration not given,reference: full-length peptide,fold threshold concentration,100 fold
N=C(N)NCCC[C@H](NC(=O)[C@H](CC(=O)O)NC(=O)[C@@H]1CSCC(=O)NCC(=O)N[C@@H](Cc2c[nH]cn2)C(=O)N[C@H](Cc2ccccc2)C(=O)N[C@@H](CCCNC(=N)N)C(=O)N[C@@H](Cc2c[nH]c3ccccc23)C(=O)N1)C(=O)N[C@@H](Cc1ccccc1)C(=O)NCC(N)=O,"Melanocortin receptor 5 (MC5R, Homo sapiens, UniProt P33032)","cAMP accumulation, agonist",HEK293 expressing MC5R,10 µM,reference: MT-II,activation,31%
